Measurements pooled from the literature.
A part holds a random share of what one study measured.

Series 1
Target: TAR DNA-binding protein 43, full length, His tag (TARDBP, Homo sapiens, UniProt Q13148, residues 1-414)
Method: RNA Bind-n-Seq
Form: RNA
Matrix: in vitro
Concentration: 20 nM
Notes: 6-mer, flanks averaged, single round
With: 150 mM LiCl
Reference: input library
Reading: higher = stronger binding
Oligonucleotide | 6-mer enrichment (R)
AACUAA | 0.848
UCGUUG | 0.971
AGCAAC | 0.851
AUGUUC | 0.985
UCGAUA | 0.825
CUCCAA | 0.904
ACAUAA | 0.871
AAUCGA | 0.787
CAUGCG | 0.946
CUCAAA | 0.824
CAGCCG | 0.872
AGUUUG | 1.23
CGAGCG | 0.947
CCGAUC | 0.85
ACUUCC | 0.872
AAUAAC | 1.12
AUGACA | 0.875
GAAUGC | 1.06

Series 2
Target: RNA binding protein fox-1 homolog 2, RRM domain, GST-SBP tag (RBFOX2, Homo sapiens, UniProt O43251-10, residues 100-194)
Method: RNA Bind-n-Seq
Form: RNA
Matrix: in vitro
Concentration: 365 nM
Notes: natural RNA segment, single round, ends assumed
Reference: no-protein control
Reading: higher = stronger binding
Construct (chain): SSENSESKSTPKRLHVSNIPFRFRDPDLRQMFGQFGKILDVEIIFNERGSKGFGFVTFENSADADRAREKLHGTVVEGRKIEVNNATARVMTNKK
Oligonucleotide | RBNS enrichment (R)
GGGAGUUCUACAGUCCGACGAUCUGAUUUCAUCUUUGUUCCUAGAUGUACUCAUUUGAAUAGGUUUUGCGUUCAUUACUCAGCAGUGUAUAAAGCUAACCUUGAUAAUUUUACCUUUUGUUAAUUAUCUAAAUUGGAAUUCUCGGGUGCCAA | 0.477
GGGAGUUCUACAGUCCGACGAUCUAGCGUUUUGGUACACGGAUAAGAGACCUGAAAUUAGCCAGGGACCUCUGCUGUGUGUCUCUGCCAAUCUGCUGGGCUGGUCCCUCUCAUUUUUACCAGUCUGAGUGACAUGGAAUUCUCGGGUGCCAA | 0.216
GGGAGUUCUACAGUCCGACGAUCGGAUAGGGACGGGUGCUUUCCUCUCUAGUUGUAUCUGAGCGGAAGGAACAUCUUUCUGUAGCUAAUAAAAACUAAAAGGGAAGAGGAAGCAGAAGGGAAGGAGUGUGGCGUGGAAUUCUCGGGUGCCAA | 0.681
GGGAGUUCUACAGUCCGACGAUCAGGACCAGAACCUCCUCCCCACCUGUGGCCUGGCCAAAACCCCCACUUGUGGUCUGAAUGUUCUCCUGAGGCCUCUGGCUAGAGUCUAGCCCCACCCAGGGGGAGGGGCUUGGAAUUCUCGGGUGCCAA | 0.966
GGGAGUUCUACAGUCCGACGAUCUGGUACUUGCCUGUAGUGUUAAACCCUAUUUGUGCCAUUCUCAAGUCCUUUGAUGUGAAUUUUCAGUUUGGUACAGUUAGAAAUGACUCAUUGAUGCGGACAGGUAAGAAUGGAAUUCUCGGGUGCCAA | 0.593
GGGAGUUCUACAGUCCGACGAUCGCUCCCAUCUCAUUUCCAGAAAGGCUCAUACCUGGCUUGCAGGGAAGCAUCUGUCUUGUCAUUCCAGGUGCCAGAAUCCUCUCAGAGUCAUUGAAGGGUGUUCACCCAUCUGGAAUUCUCGGGUGCCAA | 0.993
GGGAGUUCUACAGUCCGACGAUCAAAUAUAUAAGGAUGGACAUUUUAUCGUCUCAUAGUCAUGCUUUUUGGAAAUUUACAUCAUCCUCAAGUAAAAUAAAUAUCAGUUAAAUAUUGGAAGCUGUGUGUAAGAUUGGAAUUCUCGGGUGCCAA | 0.638
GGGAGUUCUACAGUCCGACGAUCUGUUAUGAAAUAUUUUUACUAUGACUCCUUCAACAACUAAAUACGAACUGCCUGUUCUCUAAACCUCAAGGAGAAAAACUGGAGUUAAUGGGUAAUAAGGUGCAAAAUAAUGGAAUUCUCGGGUGCCAA | 0.559
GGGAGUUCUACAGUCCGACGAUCAUACCUCUGCCACUUUGAAAAUUGUAACAGUUAAUUACUUUGAACAUUGCUAAAAGGACAUUUUGUGUAGGGUCAAGUUAUUUUUAUAUGAGUUAAUGUGAAGUUGUAAAUGGAAUUCUCGGGUGCCAA | 0.389
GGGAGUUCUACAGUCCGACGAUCACAGAGCCAUGCCCCGGCACCUCUGCCCUGUGUCUUUCAUACCUCUACAUGUCUGCUUGAGAUAUUUCCUCAGCCUGAAAGUUUCCCCAACCAUCUGCCAGAGAACUCCUUGGAAUUCUCGGGUGCCAA | 1.56
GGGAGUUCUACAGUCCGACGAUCUGCUUUGUUGCCCAGGCUGAAGUGCAGUGGCAUAAUCUCAGCUCACUGAAACCUCUGCCUCCCGGGUUCAAACGAUUCUCCUGCCUCAGCCUCCCAAGUAGCUGGGAUUAUGGAAUUCUCGGGUGCCAA | 0.309
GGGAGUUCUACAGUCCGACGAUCGAGCCUAUUUCACAUUCUCAGACUUUUAGUUUCUGCUUUAUAACCGCAUUUAAAAUGUAUUCUUAAUGUGCUGUAGUGUGUGUGAGCCGGUGUCCAGAGGUGUGAAAUAUUGGAAUUCUCGGGUGCCAA | 0.541

Series 3
Target: RING finger protein unkempt homolog, zinc fingers 1-6, GST-SBP tag (UNK, Homo sapiens, UniProt Q9C0B0, residues 30-357)
Method: RNA Bind-n-Seq
Form: RNA
Matrix: in vitro
Concentration: not given
Notes: RNA with constant flanks, human and mouse sites, ends assumed
Reference: input RNA pool
Reading: higher = stronger binding
Construct (chain): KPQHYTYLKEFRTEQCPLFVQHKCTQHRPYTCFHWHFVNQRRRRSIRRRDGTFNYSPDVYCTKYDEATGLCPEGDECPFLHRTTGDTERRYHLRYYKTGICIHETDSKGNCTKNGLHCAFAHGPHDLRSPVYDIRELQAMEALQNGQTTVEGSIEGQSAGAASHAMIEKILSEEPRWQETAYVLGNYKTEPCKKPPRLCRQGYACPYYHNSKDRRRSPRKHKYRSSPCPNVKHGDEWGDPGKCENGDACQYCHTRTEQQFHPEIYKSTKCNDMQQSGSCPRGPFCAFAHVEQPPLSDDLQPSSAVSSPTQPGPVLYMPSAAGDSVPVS
Oligonucleotide | bound/input enrichment
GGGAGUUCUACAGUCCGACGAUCGGAGGUUCAGAUUUCUUAAGGAAACGGUUGCAGAAAGGGCAAAAAUAUUUUGAUUCUGGGGAUUACAACAUGGCUAAAGCAAAAAUGAAGAACAAGCAACUUCCUACUGCAGCUCCGGAUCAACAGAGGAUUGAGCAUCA | 0.308 ratio
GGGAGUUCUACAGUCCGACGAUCAAGGAUGCAAGAUCGGAUUCCUGGCAGCUCGUACAGACCCAGUGCCUUCCUUCCUCUUCUAACAGCAUUGGCUGCUCCCCUUUCCAGUUCCAUGAAGCCACCAUCUACAACUCUGUCAACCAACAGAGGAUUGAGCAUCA | 0.275 ratio
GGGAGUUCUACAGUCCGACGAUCCUUGAGGUAUUAAUUAAUCUCCGCAACCCAAAUUAUGAAAAUGGUGAUUCUCUUAGUUUUAGGACUCAUUUGGGUUUAAUCCAAGUUCCUCUGAAAGUAAAAGACAUCCCUGAAUUGAAACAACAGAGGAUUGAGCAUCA | 0.648 ratio
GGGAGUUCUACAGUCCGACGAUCUUUUCCUUCUUCAUGUGACCUAUGAAAAUAAAUGAAUAAUAACUCAAAAAAAGUACUUUGUAGUUUUUGUCUUUCCUUAAGUAAAACUAAUCUUUUCUUUUAAAAAAUUCUUUUAAGGCCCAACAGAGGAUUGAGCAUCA | 0.481 ratio
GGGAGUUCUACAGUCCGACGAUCAGGACCGUGCAGAACCCAGCUGCAUUGAAGACCAAUGGAGAGCAUGUAUUUUAACUUGGAUUUAGGCAGGAAGUGAUACAUGAUGGUGAAGAAAACGGCCCUGAAGAAUGGACCAUAUUCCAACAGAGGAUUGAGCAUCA | 0.526 ratio
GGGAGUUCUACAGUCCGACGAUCCAGAAAAUUUACAACAAAAUCCCAGGGACCAGCAACAAUGGAUUAGAGGAGGAGUUUAAGAAGUUAACAUCAAUCAAAAUCCAGAAUGACAAGAUGCGGACUGGAAACCUUCCAGCCAACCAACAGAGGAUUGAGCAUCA | 0.197 ratio
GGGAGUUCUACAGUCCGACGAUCGAGAAGUCGACUCAUGAGAAAAUCCUAGAGAAGGCGAUGAAGAAGAAGGGGGGAAGUAAUUGUCUUGAAAUAAAAAAAGAAACAGAAAUUAAAAUUCAGACCCUGACAACGGAUCACAAACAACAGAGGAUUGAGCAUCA | 0.448 ratio
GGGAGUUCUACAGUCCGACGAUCGCUUCUUGGGAUACCUUUCUCAUGCUAUGGAAUUUCAAGCCACAUGCUAGAGCUUACAGAUAUGUGGGUCACAAGGAUGUUGUAACCAGCGUGCAGUUUUCUCCACAUGGAAACUUAUUGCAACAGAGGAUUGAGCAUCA | 0.0842 ratio
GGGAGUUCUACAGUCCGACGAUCUAGAUCAGUGUGUCUCAUUGAUCAAUUUGCCAUGUGUAUAUAAUGUAUAUUUGUGUGUAUACACACUUUGUCUUAUGCUGUAAUUUUUUUAAAACUUGAAUGUUUUGGGAUAUGUAUUUACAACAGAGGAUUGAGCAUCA | 0.255 ratio
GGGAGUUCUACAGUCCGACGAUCACUGAGCCAUUUCCUAUUUUAAAUGGCUUCUAUAGAAAAUUAACAACUCAGUUAUUAAACUAGCAGGAUCCUACAAUGAUACAUCUAGUGAAAGUAGACUUAGUUAACUUAUUUAUUUCUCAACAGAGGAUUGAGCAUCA | 12.4 ratio
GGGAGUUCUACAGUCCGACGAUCAUGAGUAAACAAUAUGGUAAUGAAGUAUUUCUGGCCAAGCUUAUUGCUCAGGCAUGCGUAUCUAUUUUUCCUGAUUCCGGCCAUUUCAAUGUUGAUAACAUCAGAGUUUGUAAAAUUCUGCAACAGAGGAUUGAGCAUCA | 0.131 ratio

Series 4
Target: Interferon regulatory factor 7, full length, phosphomimetic (IRF7, Homo sapiens, UniProt Q92985, residues 1-503, S471D/S472D/S475D/S476D/S477D/S483D/S484D/S487D)
Method: protein-binding microarray
Form: double-stranded DNA, one strand shown
Matrix: in vitro
Concentration: 2200 nM top
Notes: 60-bp whole probe
With: salmon DNA 0.4 mg/ml
Reference: random background probes
Reading: higher = stronger binding
All sequences stand within: GCCTAGCAC … GTCTTGATTCGCTTGACGCTGCTG
Construct (chain): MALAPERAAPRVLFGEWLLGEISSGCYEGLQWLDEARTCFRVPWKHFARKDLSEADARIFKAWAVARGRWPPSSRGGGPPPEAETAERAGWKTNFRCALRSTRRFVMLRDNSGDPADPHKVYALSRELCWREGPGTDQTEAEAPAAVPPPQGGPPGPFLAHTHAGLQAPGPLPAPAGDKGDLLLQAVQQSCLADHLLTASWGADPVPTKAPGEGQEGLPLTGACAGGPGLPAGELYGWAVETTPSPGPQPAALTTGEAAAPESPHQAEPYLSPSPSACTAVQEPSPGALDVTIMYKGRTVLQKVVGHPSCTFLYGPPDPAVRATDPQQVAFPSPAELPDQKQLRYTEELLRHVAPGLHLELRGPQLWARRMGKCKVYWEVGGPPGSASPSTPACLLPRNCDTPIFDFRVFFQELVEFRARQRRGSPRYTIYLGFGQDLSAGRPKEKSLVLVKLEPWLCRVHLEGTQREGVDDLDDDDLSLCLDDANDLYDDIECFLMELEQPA
Oligonucleotide | fitted relative affinity [z-score]
TCAAGTATGTTCACTATTACTGTGCTA | 0.451
GACGGTATCGAGTTTCGGGACGTGCTA | 2.22
GACGGTTACGGTCTCGGGACGTGCTAG | -0.0313
TCATTCTCCTATTTAAGACTGTGCTAG | 2.18
ACGCATGTGGGTTCCATCATGTGCTAG | 0.497
TTTCTTTTCATTACTGCATTGTGCTAG | 8.14
GCATTTTTCTAACCCATTGAGTGCTAG | 1.41
AAGAGTTTCCCTCCCTGAGTGTGCTAG | 1.08
TTAGGTATCGACTTGCGGTTAGTGCTA | 1.11
GACGATATCAGCTTCGAGACGTGCTAG | 0.339
GGCGGTTTCCTTTCCCTGACGTGCTAG | 3.92
TTAGGACCGGACTTTCGGTTAGTGCTA | 4.9
TCACGTCTGGGTGTTTTACTGTGCTAG | 0.796
TTAGGTTTCGACTATTGGTTAGTGCTA | 2.53
GACGACATCGGGTTTCGAGACGTGCTA | 1.24
TTAGGTATCGGTCTCCGTTAGTGCTAG | 0.801

For quick reference, copied from above (series 4):
Oligonucleotide | fitted relative affinity [z-score]
GACGATATCAGCTTCGAGACGTGCTAG | 0.339
GGCGGTTTCCTTTCCCTGACGTGCTAG | 3.92
TTAGGACCGGACTTTCGGTTAGTGCTA | 4.9
TCACGTCTGGGTGTTTTACTGTGCTAG | 0.796
